{"data": "Measurements of several laboratories", "note": "Parts stem from different laboratories: compare values within a part only. Changes are numbered by the printed parent chain."}
{"data": "Series 1", "target": "ABI1, truncated, D143A, DHFR fusion (Arabidopsis thaliana)", "method": "DHFR PCA, deep sequencing", "sample": "yeast", "setting": "methotrexate growth selection, single substitutions", "together with": "(+)-ABA 0 µM", "baseline": "wild-type fitted maximum", "reading": "higher = stronger binding", "parent": "PYL1, truncated, DHFR fusion (Arabidopsis thaliana); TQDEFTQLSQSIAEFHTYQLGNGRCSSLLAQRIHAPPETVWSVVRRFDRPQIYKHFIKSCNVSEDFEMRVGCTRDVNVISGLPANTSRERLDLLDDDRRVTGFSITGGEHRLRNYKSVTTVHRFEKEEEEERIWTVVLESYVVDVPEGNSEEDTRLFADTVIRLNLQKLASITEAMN; partner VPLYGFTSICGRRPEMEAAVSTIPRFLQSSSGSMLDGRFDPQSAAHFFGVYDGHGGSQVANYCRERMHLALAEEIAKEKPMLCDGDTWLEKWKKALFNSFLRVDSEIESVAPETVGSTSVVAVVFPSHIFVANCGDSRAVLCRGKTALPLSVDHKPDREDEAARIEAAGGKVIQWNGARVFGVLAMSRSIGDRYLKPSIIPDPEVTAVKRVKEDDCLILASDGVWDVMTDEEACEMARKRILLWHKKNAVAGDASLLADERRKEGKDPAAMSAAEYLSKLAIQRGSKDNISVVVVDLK"}
{"Variant": "N177C", "relative binding score [%]": 25.4}
{"Variant": "S11L", "relative binding score [%]": 3.11}
{"Variant": "I79W", "relative binding score [%]": 21.1}
{"Variant": "K54S", "relative binding score [%]": 2.95}
{"Variant": "S171K", "relative binding score [%]": 28.9}
{"Variant": "E109M", "relative binding score [%]": 3.05}
{"Variant": "F103K", "relative binding score [%]": -0.129}
{"Variant": "G81W", "relative binding score [%]": 2.92}
{"data": "Series 2", "target": "RNA binding protein fox-1 homolog 2, RRM domain, GST-SBP tag (RBFOX2, Homo sapiens, UniProt O43251-10, residues 100-194)", "method": "RNA Bind-n-Seq", "molecule type": "RNA", "sample": "in vitro", "concentration": "365 nM", "setting": "natural RNA segment, single round, ends assumed", "baseline": "no-protein control", "reading": "higher = stronger binding", "all sequences stand within": "GGGAGUUCUACAGUCCGACGAUC … UGGAAUUCUCGGGUGCCAA", "Residues (chain)": "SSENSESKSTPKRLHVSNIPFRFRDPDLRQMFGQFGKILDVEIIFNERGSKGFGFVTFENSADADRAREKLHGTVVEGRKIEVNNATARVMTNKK"}
{"Oligonucleotide": "GGACACGUGUUGUACAUAAGCCUCUGCAGUGUCCUCUUGUUAAUGGUGGGGUUUUCUGCUUUGUUUUUAUUUAAGAAAAUAAACACGACAUAUUUAAAGAAGGUUCUUUC", "RBNS enrichment (R)": 0.748}
{"Oligonucleotide": "CCCACUGCAGGCCCCGCUUGUCCAGCGCCUAGUGGGGUCUCCCUCUCCUGCCUACUCACGAUAAAUAAUCGGCCCACAGCUCCCACCCCACCCCCUUCAGUGCCCACCAA", "RBNS enrichment (R)": 1.62}
{"Oligonucleotide": "AUAUGCGGAGAGUAAAUGCAAAAAUGCUAAGAGUAAUGCAUCAUGUAUUGAAUAUUAAGUGUCACUGAAGCAAUGUUUGUGUUGACUAGAAACGUAAGAUGACUUGUGUA", "RBNS enrichment (R)": 0.646}
{"Oligonucleotide": "AUUAGGGCUAGUGACUUUCUCAAACUCAGAAGCUAAAAAGCAGCCUAGAUGACUAUGCACACACUGGGUUUCAAGAUGAAAUCUUCUUAUAUAUUCAGAUGGAAAAAAAU", "RBNS enrichment (R)": 0.214}
{"Oligonucleotide": "AAAUUUAGACAGGGAUCUCUUACCUUUGGAAAAUAGGGGUUAGGCAUGAAGGUGGUUGUGAUUAAGAAGAUGGUUUUGUUAUUAAAUAGCAUUAAACUGGAAUUGACAAG", "RBNS enrichment (R)": 1.13}
{"Oligonucleotide": "CUCCCUGGGGAACCUACUUUCUGCUCAGUGAGGCUCCGGCCAGAAACCUGGAGUCCUUAUCCUCCCCUCUGUAAGUGUUUUAGGGUCUGGCUUUUGCAGGCACCCUCUGA", "RBNS enrichment (R)": 0.723}
{"data": "Series 3", "target": "CCNE2, cyclin fold, Cln2 fusion (human)", "method": "yeast growth competition, sequencing", "sample": "yeast", "setting": "strong parent motif", "baseline": "not given", "reading": "higher = stronger binding", "parent": "SCAPER docking peptide (human); SNARRSLNFGGST; partner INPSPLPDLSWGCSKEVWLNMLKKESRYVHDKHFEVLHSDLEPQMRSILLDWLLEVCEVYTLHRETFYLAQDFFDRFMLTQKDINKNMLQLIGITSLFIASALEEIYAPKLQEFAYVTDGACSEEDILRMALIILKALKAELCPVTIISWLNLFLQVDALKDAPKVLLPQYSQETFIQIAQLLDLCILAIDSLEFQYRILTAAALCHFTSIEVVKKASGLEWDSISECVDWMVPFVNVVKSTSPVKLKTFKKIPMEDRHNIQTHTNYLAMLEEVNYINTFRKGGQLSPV"}
{"Variant": "F9T", "normalised enrichment score": 0.243}
{"Variant": "A3L", "normalised enrichment score": -0.419}
{"Variant": "L7A", "normalised enrichment score": 0.543}
{"Variant": "S1Q", "normalised enrichment score": 0.855}
{"Variant": "S12W", "normalised enrichment score": 1.04}
{"Variant": "T13Q", "normalised enrichment score": 1.05}
{"data": "Further values, each from its own experiment"}
{"Substance": "PhoQ, residues 284 288 289 292 302 303 GASLAW", "target": "PhoP, residues 12 14 15 18 19 NQGLL (Escherichia coli, UniProt P23836)", "assay": "Sort-seq, item: YFP reporter", "test system": "E. coli", "conditions": "PhoQ-PhoP variant library, together with: 10 µM Mg2+", "how to read": "baseline: high Mg2+ state, higher = stronger signaling", "endpoint": "fold induction", "value": 2.26}
{"note": "For quick reference, copied from above (series 2):"}
{"Oligonucleotide": "AUUAGGGCUAGUGACUUUCUCAAACUCAGAAGCUAAAAAGCAGCCUAGAUGACUAUGCACACACUGGGUUUCAAGAUGAAAUCUUCUUAUAUAUUCAGAUGGAAAAAAAU", "RBNS enrichment (R)": 0.214}
{"Oligonucleotide": "AUAUGCGGAGAGUAAAUGCAAAAAUGCUAAGAGUAAUGCAUCAUGUAUUGAAUAUUAAGUGUCACUGAAGCAAUGUUUGUGUUGACUAGAAACGUAAGAUGACUUGUGUA", "RBNS enrichment (R)": 0.646}
{"Oligonucleotide": "AAAUUUAGACAGGGAUCUCUUACCUUUGGAAAAUAGGGGUUAGGCAUGAAGGUGGUUGUGAUUAAGAAGAUGGUUUUGUUAUUAAAUAGCAUUAAACUGGAAUUGACAAG", "RBNS enrichment (R)": 1.13}
